Published values of several laboratories.
A part holds a random share of what one study measured. Positions count from the first letter of the parent shown.

Study 1 — target: CCND1, cyclin fold, Cln2 fusion (human); technique: yeast growth competition, sequencing; medium: yeast; setting: weak parent motif; relative to: not given; direction: higher = stronger binding; quantity: normalised enrichment score
Starting sequence: GMNC docking peptide (human); KNAKRNLSSEFAN; partner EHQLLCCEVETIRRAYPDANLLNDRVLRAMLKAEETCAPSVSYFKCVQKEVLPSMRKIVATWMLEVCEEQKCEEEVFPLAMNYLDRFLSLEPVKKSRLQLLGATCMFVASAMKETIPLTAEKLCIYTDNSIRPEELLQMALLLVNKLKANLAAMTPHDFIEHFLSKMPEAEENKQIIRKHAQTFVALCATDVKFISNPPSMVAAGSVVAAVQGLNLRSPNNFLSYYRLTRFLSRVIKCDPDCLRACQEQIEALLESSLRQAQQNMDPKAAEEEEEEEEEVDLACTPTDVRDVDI
N2D: 0.408
K4E: -0.132
N2Y: 0.33
F11V: 0.0605
A12Y: 0.245
E10N: 0.0163
N6E: 0.469
E10R: 0.511
N2T: 0.807
S9D: 1.02
L7F: -0.116
E10Y: -0.188
L7V: 0.281
A3R: 0.0782
K4V: 0.78
A3I: 0.512
A3F: 0.261
N2C: 0.511

Study 2 — technique: competition protein-binding microarray; form: double-stranded DNA, one strand shown; medium: in vitro; concentration: 2 µM; with: Pho4 competitor, 0.05 µM; direction: higher = stronger binding; quantity: fluorescence intensity
Target: Centromere-binding protein 1, full length, His-tagged (CBF1, Saccharomyces cerevisiae, UniProt P17106, residues 1-351)
Sequence of UniProt P17106 (whole entry, looked up): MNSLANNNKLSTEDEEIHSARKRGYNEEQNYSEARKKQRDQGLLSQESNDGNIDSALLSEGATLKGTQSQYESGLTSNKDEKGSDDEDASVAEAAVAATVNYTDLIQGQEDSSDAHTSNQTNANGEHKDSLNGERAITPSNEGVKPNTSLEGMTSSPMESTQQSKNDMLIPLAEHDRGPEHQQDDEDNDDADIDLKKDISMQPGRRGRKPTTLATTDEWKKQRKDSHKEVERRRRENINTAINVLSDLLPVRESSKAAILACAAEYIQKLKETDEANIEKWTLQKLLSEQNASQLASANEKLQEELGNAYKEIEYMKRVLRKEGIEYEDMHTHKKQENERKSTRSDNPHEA
Setting: whole 60-bp probe, lowest competitor level
AAATTACTAAGTTGTCACGCGACTTACCCCGTATGAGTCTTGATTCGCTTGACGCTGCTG: 790 a.u.
AAATTACTAAGTTGACTAGTGGGTGACGCCGTATGAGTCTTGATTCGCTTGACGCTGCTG: 69.4 a.u.
GTCTTGTCTCATTGTCACTGGACTTTCCCCACTTCAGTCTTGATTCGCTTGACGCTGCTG: 83.8 a.u.
CGGGGTTAAGTTTGTAATGTGGGTGGCTTGCAGCAGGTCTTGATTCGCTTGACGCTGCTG: 74.9 a.u.
TTTCATAGCGGGCCAAGCGTGGGTAAAGTGCTGGACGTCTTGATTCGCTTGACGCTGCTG: 63.1 a.u.
CTTTCCCGATCTTGTTGGGTGGGTGTAGCACATTTGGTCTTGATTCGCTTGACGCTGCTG: 71.7 a.u.
TCGTATACTTTATGTCTCGTGGGTATAAAAAGCCAAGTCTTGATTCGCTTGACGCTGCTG: 204 a.u.
GTAGCAAATGCACTGCATGTGTTTCTGTGGCGGGTAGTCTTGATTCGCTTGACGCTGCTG: 90.4 a.u.
AAGTTACTGCCGCTTTACGTGTCTGTGACGGTGCTTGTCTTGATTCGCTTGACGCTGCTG: 66.8 a.u.
GCCGTTTTGCTCCGGGTCGTGCCGACGTAAATCCATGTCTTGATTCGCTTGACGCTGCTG: 63.9 a.u.
AAAGCGGTAATTTTTCACGTGAAGTCAAATATCTATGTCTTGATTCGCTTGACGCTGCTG: 1230 a.u.
CCATTAGTAGGTTGTCATGAAGGTGCTGGTGTAGTTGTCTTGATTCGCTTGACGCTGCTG: 74.7 a.u.

Study 3 — technique: DHFR PCA, deep sequencing; medium: yeast; with: (+)-ABA 0.0091 µM; relative to: wild-type fitted maximum; direction: higher = stronger binding; quantity: relative binding score
Target: ABI1, truncated, D143A, DHFR fusion (Arabidopsis thaliana)
Setting: methotrexate growth selection, single substitutions
Starting sequence: PYL1, truncated, DHFR fusion (Arabidopsis thaliana); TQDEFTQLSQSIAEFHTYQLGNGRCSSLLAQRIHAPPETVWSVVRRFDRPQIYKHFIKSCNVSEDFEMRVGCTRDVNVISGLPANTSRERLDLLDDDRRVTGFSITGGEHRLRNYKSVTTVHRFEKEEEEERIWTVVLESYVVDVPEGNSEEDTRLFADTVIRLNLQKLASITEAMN
D48A: -0.867%
S42C: -1.52%
P37L: 0.929%
Q19G: 0.773%
S9C: 13.3%
V136D: 0.305%
E14M: 8.09%
K126N: 48.1%
V43P: 0.987%
Q7D: 16.8%
I52Q: 26.5%

Other studies, line by line
PhoQ, residues 284 288 289 292 302 303 WVSSAF — fold induction (PhoP, residues 12 14 15 18 19 YHFSH (Escherichia coli, UniProt P23836); Sort-seq, refers to: YFP reporter; E. coli; PhoQ-PhoP variant library, with: 10 µM Mg2+; relative to: high Mg2+ state, higher = stronger signaling): 1.55

A few entries again (study 2):
TTTCATAGCGGGCCAAGCGTGGGTAAAGTGCTGGACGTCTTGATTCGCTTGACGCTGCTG: 63.1 a.u.
CTTTCCCGATCTTGTTGGGTGGGTGTAGCACATTTGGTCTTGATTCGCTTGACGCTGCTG: 71.7 a.u.
AAATTACTAAGTTGACTAGTGGGTGACGCCGTATGAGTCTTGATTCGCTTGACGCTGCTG: 69.4 a.u.
CCATTAGTAGGTTGTCATGAAGGTGCTGGTGTAGTTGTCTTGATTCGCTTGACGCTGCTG: 74.7 a.u.
TCGTATACTTTATGTCTCGTGGGTATAAAAAGCCAAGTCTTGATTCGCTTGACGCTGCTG: 204 a.u.
